# Published values gathered from unrelated publications.
# A part holds a random share of what one study measured.

# Study 1 — technique: competition protein-binding microarray; molecule type: double-stranded DNA, one strand shown; medium: in vitro; concentration: 2 µM; added: Pho4 competitor, 0.05 µM; reading: higher = stronger binding; all sequences stand within: … GTCTTGATTCGCTTGACGCTGCTG
# Target: Centromere-binding protein 1, full length, His-tagged (CBF1, Saccharomyces cerevisiae, UniProt P17106, residues 1-351)
# Sequence of UniProt P17106 (whole entry, looked up): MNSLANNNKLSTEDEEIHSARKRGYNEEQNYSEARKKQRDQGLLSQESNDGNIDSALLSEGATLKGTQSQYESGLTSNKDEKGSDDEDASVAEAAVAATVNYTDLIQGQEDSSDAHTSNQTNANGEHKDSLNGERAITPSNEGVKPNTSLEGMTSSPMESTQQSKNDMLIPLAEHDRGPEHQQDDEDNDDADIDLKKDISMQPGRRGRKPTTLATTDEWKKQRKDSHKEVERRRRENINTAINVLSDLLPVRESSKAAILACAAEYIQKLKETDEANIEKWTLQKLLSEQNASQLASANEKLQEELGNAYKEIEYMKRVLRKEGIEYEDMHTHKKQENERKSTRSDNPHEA
# Notes: whole 60-bp probe, lowest competitor level
Strand,fluorescence intensity [a.u.]
TAAAAGAACTAGAGCATCGTGATGGTATGATTCACT,100
GATTCATGGCTTCACCACGGGTCTTTGGCCAAGAGT,77.3
AAATTACTAAGTTGGACGGTGGGTGACGCCGTATGA,64
TCAAGAAATTTAGCTCGCGTGGCCGAATGGCAACGC,72.9
TGCGCAACAACTTGGCTGGTGGGTGTATGTCTAGAA,61.4

# Study 2 — technique: RNA Bind-n-Seq; molecule type: RNA; medium: in vitro; concentration: not given; reference: input RNA pool; reading: higher = stronger binding
# Target: RING finger protein unkempt homolog, zinc fingers 1-6, GST-SBP tag (UNK, Homo sapiens, UniProt Q9C0B0, residues 30-357)
# Notes: RNA with constant flanks, human and mouse sites, ends assumed
# All sequences stand within: GGGAGUUCUACAGUCCGACGAUC … CAACAGAGGAUUGAGCAUCA
# Residues (chain): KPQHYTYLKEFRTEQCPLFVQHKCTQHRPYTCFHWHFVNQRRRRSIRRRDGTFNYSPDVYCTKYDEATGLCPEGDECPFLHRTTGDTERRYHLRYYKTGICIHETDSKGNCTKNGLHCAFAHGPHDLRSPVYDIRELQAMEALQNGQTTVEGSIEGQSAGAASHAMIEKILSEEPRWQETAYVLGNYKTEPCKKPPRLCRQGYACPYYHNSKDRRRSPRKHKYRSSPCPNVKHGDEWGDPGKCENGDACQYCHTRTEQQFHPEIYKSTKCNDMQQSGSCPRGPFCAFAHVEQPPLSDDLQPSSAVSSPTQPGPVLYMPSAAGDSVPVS
Strand,bound/input enrichment [ratio]
AGGGGGAGGCCUCGGACUUCUCGCUGGCCUGGGAUUCCUCUGUGGCAGCAGCAGGAGGCCUGGAAGGAGAGCCAGAGUGUGAUCGGAAAACCAGCCGUGCGCUGGAAGACAGGAACAGCG,0.269
AACAAGCCCUGCCCAGUGUGCAGACAGCCAAUCCAAAUGAUUGUGCUAACUUACUUCAACUAGCUGACCUGCUCACAAAAAUAGAAUUUUAUAUUUCUAACUAUAUGACCCCCAAAUUAG,50.8
GAUGACAUCCACCGCUCCCUCAUGGUUGACCAUGUGACUGAGGUCAGUCAGUGGAUGGUAGGAGUUAAAAGAUUAAUUGCAGAAAAGAGGAGUCUGUUUUCAGAGGAGGCAGCCAAUGAA,0.881
UACGCAGAGCGCUAUGAGACAUGGGAGGAGGAUCAAAGCCCACCCUUCCACUACAACACACAUUACUCAACGGCGACUUCCGCCCUGUCAUGGCUUGUUCGGAUUGAGCCAUUCACAACC,0.175
UGUAUGUUCUUCAAGAAUUACGAGAAAGCCAAAGUUAAACUUUUGGAGUUCCAGAAAAGCCUUGAAACACUUGACACAGUGGCCGCAAGGGUCCUUCCUAUCAUACCUGCCUCGUGGAUG,0.148
AUGUUGGGGUCUAGUAUCCAGACCUUUGCACCUUCCCAGGAUGUAAGCAGUGACAUCCAUCCUGAUGAAGCAGCAGAAAAGGAGCUGACUUCAGUUGUGGCAGAAAAUGGCACUGGCUUG,0.0299

# Study 3 — technique: protein-binding microarray; molecule type: double-stranded DNA, one strand shown; medium: in vitro; concentration: 2540 nM top; notes: 60-bp whole probe; added: salmon DNA 0.4 mg/ml; reference: random background probes; reading: higher = stronger binding; all sequences stand within: GCCTAGCAC … GTCTTGATTCGCTTGACGCTGCTG
# Target: Interferon regulatory factor 3, full length, phosphomimetic (IRF3, Homo sapiens, UniProt Q14653, residues 1-427, S386D/S396D/S398D/S402D/T404D/S405D)
# Sequence of UniProt Q14653 (whole entry, unmodified, looked up): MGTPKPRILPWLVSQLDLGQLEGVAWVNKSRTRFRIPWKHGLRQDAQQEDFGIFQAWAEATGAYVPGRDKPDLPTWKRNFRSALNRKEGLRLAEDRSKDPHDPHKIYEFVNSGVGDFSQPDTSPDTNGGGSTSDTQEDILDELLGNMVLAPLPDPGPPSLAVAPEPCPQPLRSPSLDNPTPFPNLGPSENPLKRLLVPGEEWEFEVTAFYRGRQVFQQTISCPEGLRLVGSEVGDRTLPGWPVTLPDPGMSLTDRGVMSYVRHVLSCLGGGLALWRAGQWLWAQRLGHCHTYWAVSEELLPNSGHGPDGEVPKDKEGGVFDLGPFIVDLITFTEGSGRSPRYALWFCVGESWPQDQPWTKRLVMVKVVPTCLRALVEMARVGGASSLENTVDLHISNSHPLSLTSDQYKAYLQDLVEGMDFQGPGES
Strand,fitted relative affinity
AGAAATTTCTTTCTAATTCAGTGCTAG,1.96 z-score
CCATTTTGTGTTTTCATTTTGTGCTAG,2.88 z-score
CTTGCCCACTTCTGTGACAGGTGCTAG,1.16 z-score
TCAGCTATTTTATATGCTACTGTGCTA,0.34 z-score
TTAGGTTTCCTCTTCCTTTAGTGCTAG,4.52 z-score

# Other studies, line by line
Molecule,target,test,test system,conditions,scale,measurement,result
"PhoQ, residues 284 288 289 292 302 303 GNNTDL","PhoP, residues 12 14 15 18 19 LQHIR (Escherichia coli, UniProt P23836)","Sort-seq, item: YFP reporter",E. coli,"PhoQ-PhoP variant library, added: 10 µM Mg2+","reference: high Mg2+ state, higher = stronger signaling",fold induction,5.42

# A few entries again (study 2):
Strand,bound/input enrichment [ratio]
UGUAUGUUCUUCAAGAAUUACGAGAAAGCCAAAGUUAAACUUUUGGAGUUCCAGAAAAGCCUUGAAACACUUGACACAGUGGCCGCAAGGGUCCUUCCUAUCAUACCUGCCUCGUGGAUG,0.148
AUGUUGGGGUCUAGUAUCCAGACCUUUGCACCUUCCCAGGAUGUAAGCAGUGACAUCCAUCCUGAUGAAGCAGCAGAAAAGGAGCUGACUUCAGUUGUGGCAGAAAAUGGCACUGGCUUG,0.0299
